{"data": "Published values of several laboratories", "rep main protease": "Replicase polyprotein 1ab, main protease (rep, Severe acute respiratory syndrome coronavirus 2, UniProt P0DTD1)", "note": "Each line is one published result; not all experiments were run side by side. “And” joins repeats or separate records; there may be more than shown. ± gives the spread as reported."}
{"Structure (SMILES)": "O=C(CCc1ccccc1)NOC(=O)OCc1ccccc1", "target or system": "rep main protease", "test": "enzyme inactivation, inhibitor", "setting": "1 to 30 µM", "endpoint": "KI", "result": "1180 ± 430 nM"}
{"Structure (SMILES)": "O=C(NCCc1cccc(F)c1)[C@H](c1cncnc1)N(C(=O)[C@H](F)Cl)c1ccc(S(F)(F)(F)(F)F)cc1", "target or system": "rep main protease", "test": "enzyme activity, inhibitor", "endpoint": "kinact/KI", "result": "66 M⁻¹ s⁻¹"}
{"Structure (SMILES)": "C[C@H]1CC[C@@H]2[C@H]([C@@H]1n1[se]c3ccccc3c1=O)C2(C)C", "target or system": "rep main protease", "test": "enzyme activity, inhibitor", "setting": "40 µM, mean of repeats", "endpoint": "inhibition", "result": "102%"}
{"Structure (SMILES)": "O=C(N[C@@H](Cc1ccccc1)C(=O)N[C@@H](C[C@@H]1CCNC1=O)C(O)S(=O)(=O)O)OCc1ccccc1 (stereo partly drawn)", "target or system": "rep main protease", "test": "thermal stability, DSF", "endpoint": "ΔTm", "result": "8.28 °C"}
{"Structure (SMILES)": "O=C1C=CC(=O)C=C1", "target or system": "Replicase polyprotein 1ab, nsp14 N7-methyltransferase (rep, Severe acute respiratory syndrome coronavirus 2, UniProt P0DTD1)", "test": "N7-methyltransferase activity, inhibitor, Py-FLINT", "endpoint": "Hill slope", "result": "1.54 ± 0.42"}
{"Structure (SMILES)": "COC(=O)[C@H](C)n1[se]c2ccccc2c1=O", "target or system": "rep main protease", "test": "enzyme activity, inhibitor", "setting": "40 µM", "endpoint": "inhibition", "result": "105% and 104%"}
{"Structure (SMILES)": "C[C@](C(=O)NC1CCOCC1)(c1cncnc1)N(C(=O)[C@H](F)Cl)c1ccc(OC(F)(F)Cl)cc1", "target or system": "rep main protease", "test": "enzyme activity, inhibitor", "setting": "1.111 µM", "endpoint": "inhibition", "result": "99.4%"}
{"Structure (SMILES)": "CNC(=O)CC1CN(C(=O)c2ccc(C(F)(F)F)cn2)CCN1C(=O)c1cccnn1 (stereo not drawn)", "target or system": "rep main protease", "setting": "0.0001693 µM", "endpoint": "remaining activity", "result": "95.1%"}
{"Structure (SMILES)": "O=C(NC1CCN(c2ncnc3[nH]cnc23)CC1)c1cccc(NS(=O)(=O)c2ccc(C(F)(F)F)cc2)c1", "target or system": "Replicase polyprotein 1ab, nsp14 with nsp10 (rep, Severe acute respiratory syndrome coronavirus 2, UniProt P0DTD1)", "test": "exonuclease activity", "system": "SARS-CoV-2", "setting": "0.7812 µM", "endpoint": "inhibition", "result": "10.3%"}
{"Structure (SMILES)": "Cc1ccc(OCCN(C)C)cc1C(=O)N[C@H](C)c1cc(-c2cccnc2N2CCCC2)nc2ccccc12", "target or system": "Replicase polyprotein 1ab, papain-like protease (rep, Severe acute respiratory syndrome coronavirus 2, UniProt P0DTD1)", "test": "reporter gene, cell-based", "endpoint": "GFP/mCherry signal ratio", "result": "55.2 and 0 and 45.9 and 66.3 and 10.2"}
{"Structure (SMILES)": "CCc1cccc2c(C(=O)NC3CCN(C(=O)C(C)C)CC3)c[nH]c12", "target or system": "rep main protease", "test": "protease activity, SAMDI-MS", "endpoint": "Hill slope", "result": "1.77 and 1.78"}
{"Structure (SMILES)": "O=C(c1cccc(Br)c1)N1CCC(c2ccn3ncc(C(=O)N4CCCCC4)c3c2)CC1", "target or system": "Replicase polyprotein 1ab, nsp3 macrodomain (rep, Severe acute respiratory syndrome coronavirus 2, UniProt P0DTD1)", "test": "enzyme activity, inhibitor, ADPr-Glo", "setting": "concentration not given, SARS-CoV-2", "endpoint": "ADP-ribosylhydrolase inhibition", "result": "inhibited"}
{"Structure (SMILES)": "CCCCCCCCCCCCCCCC(=O)N[C@@H](CCC(=O)NCCOCCOCCC(=O)NCCOCCOCCC(=O)NCCCC[C@H](NC(=O)[C@H](CC(=O)O)NC(=O)[C@H](CC(C)C)NC(=O)[C@H](Cc1ccc(O)cc1)NC(=O)[C@H](CCCCN)NC(=O)[C@H](CO)NC(=O)[C@H](Cc1ccc(O)cc1)NC(=O)[C@H](CC(=O)O)NC(=O)[C@H](CO)NC(=O)[C@@H](NC(=O)[C@H](Cc1ccccc1)NC(=O)[C@@H](NC(=O)CNC(=O)[C@H](CCC(N)=O)NC(=O)[C@@H](CO)NC(=O)[C@@H](N)Cc1c[nH]cn1)[C@@H](C)O)[C@@H](C)O)C(=O)N[C@@H](CCCNC(=N)N)C(=O)N[C@@H](CCCNC(=N)N)C(=O)N[C@@H](C)C(=O)N[C@@H](CCC(N)=O)C(=O)N[C@@H](CC(=O)O)C(=O)N[C@@H](Cc1ccccc1)C(=O)N[C@H](C(=O)N[C@@H](CCC(N)=O)C(=O)N[C@@H](Cc1c[nH]c2ccccc12)C(=O)N[C@@H](CC(C)C)C(=O)N[C@@H](CC(C)C)C(=O)N[C@@H](CC(N)=O)C(=O)N[C@H](C(=O)NCC(=O)NCC(=O)N1CCC[C@H]1C(=O)N[C@@H](CO)C(=O)N[C@@H](CO)C(=O)NCC(=O)N[C@@H](C)C(=O)N1CCC[C@H]1C(=O)N1CCC[C@H]1C(=O)N1CCC[C@H]1C(=O)N[C@@H](CO)C(N)=O)[C@@H](C)O)C(C)C)C(=O)O", "system": "rhesus monkey, both sexes", "setting": "subcutaneous, 20 µg/kg, multiple doses, day 7", "endpoint": "Tmax", "result": "2 h"}
{"Structure (SMILES)": "CC(=O)Nc1ccc(-c2cnc(N3C(=O)C(Cl)C3c3cc4ccccc4nc3Cl)s2)cc1 (stereo not drawn)", "target or system": "rep main protease", "test": "thermal stability", "setting": "100 µM", "endpoint": "ΔTm", "result": "-3 °C"}
{"Structure (SMILES)": "[N-]=[N+]=N[C@]1(COP(=O)(O)OP(=O)(O)OP(=O)(O)O)O[C@@H](n2ccc(N)nc2=O)[C@@H](F)[C@@H]1O", "target or system": "Replicase polyprotein 1ab, nsp12 RdRp (rep, Severe acute respiratory syndrome coronavirus 2, UniProt P0DTD1)", "test": "nucleotide incorporation, substrate", "endpoint": "Vmax", "result": "0.94 fraction per time"}
{"note": "A few entries again:"}
{"Structure (SMILES)": "[N-]=[N+]=N[C@]1(COP(=O)(O)OP(=O)(O)OP(=O)(O)O)O[C@@H](n2ccc(N)nc2=O)[C@@H](F)[C@@H]1O", "target or system": "Replicase polyprotein 1ab, nsp12 RdRp (rep, Severe acute respiratory syndrome coronavirus 2, UniProt P0DTD1)", "test": "nucleotide incorporation, substrate", "endpoint": "Vmax", "result": "0.94 fraction per time"}
